Experimental data from different studies.
Each numbered part is a random draw from the data of one study; scales do not carry over between parts. Substitutions count along the parent as printed.

Set 1
Target: Phosphate system positive regulatory protein PHO4, full length, GST-tagged (PHO4, Saccharomyces cerevisiae, UniProt P07270, residues 1-312)
Method: competition protein-binding microarray
Molecule type: double-stranded DNA, one strand shown
Matrix: in vitro
Tested at: 2 µM
Notes: whole 60-bp probe, lowest competitor level
Added: Cbf1 competitor, 0.05 µM
Reading: higher = stronger binding
Constant ends, left off below: … GTCTTGATTCGCTTGACGCTGCTG
Construct (chain): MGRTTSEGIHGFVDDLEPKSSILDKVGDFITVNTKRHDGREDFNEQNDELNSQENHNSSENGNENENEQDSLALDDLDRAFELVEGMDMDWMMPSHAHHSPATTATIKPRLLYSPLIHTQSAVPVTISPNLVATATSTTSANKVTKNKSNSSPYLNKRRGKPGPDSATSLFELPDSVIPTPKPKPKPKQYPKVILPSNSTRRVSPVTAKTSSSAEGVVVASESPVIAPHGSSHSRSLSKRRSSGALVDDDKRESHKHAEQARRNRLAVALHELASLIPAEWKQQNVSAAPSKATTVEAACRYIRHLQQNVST
Strand | fluorescence intensity [a.u.]
GCCCAGGAGTTCTGGCACGTTGTTTTGAGGCTAAGT | 12800
CATACCCAACCTTGTTGCGTGGGTGAAGATATTTGT | 7020
AACCTGTCCAAATACCACATGCTTTCCATCGAGCCA | 8620
TTTTTCATGTAAGGCCACATGATTCAGACTTACATC | 7600
AAATTACTAAGTTGGACCGTGGGTGACGCCGTATGA | 8200
GCCAGTCGCCAATGCCACCTGATTCTCTGGTCGATT | 3090
CGGGGTTAAGTTTGAGTCGTGGGTGGCTTGCAGCAG | 7050
AAAGCGGTAATTTGAAGTGTGGGTGCAGATATCTAT | 5320
TCAATAAATAATGCTCGCGTGGCCGAATGGCAACGC | 8920
CGGGGTTAAGTTTGCAAAGTGGGTGGCTTGCAGCAG | 4900
TAAGTTTTTGGCCTGTGCGTGTTGATAAGGGAAAGA | 7860
CTTTCCCGATCTTTTCACGTGTGCTTAGCACATTTG | 15200
TACAAATTGCCCGTCCACGTTCGTCGTTCTAACTTC | 10800
CTTCTGTAAATTTGTCGCGTGGGTGGACGCGCCCCG | 7990
CTTTTGGGCGGCCATCACGCAGATGTGGTGTTTGAG | 6560
CCCAGCCCTGGGAGCCACGTGATCCCGGTCCTGGTT | 15400
TGAGTTGTCTTCCATGTCGTGCTTTGTAATTCCTCA | 6620
GGCAGCCTTTTCCATCTCGTGAAATGTTTCAGCCTT | 3620

Set 2
Target: CCNA1, cyclin fold, Cln2 fusion (human)
Method: yeast growth competition, sequencing
Matrix: yeast
Notes: weak parent motif
Relative to: not given
Reading: higher = stronger binding
Parent: DBF4 docking peptide (human); DDIVSKLVFDFVE; partner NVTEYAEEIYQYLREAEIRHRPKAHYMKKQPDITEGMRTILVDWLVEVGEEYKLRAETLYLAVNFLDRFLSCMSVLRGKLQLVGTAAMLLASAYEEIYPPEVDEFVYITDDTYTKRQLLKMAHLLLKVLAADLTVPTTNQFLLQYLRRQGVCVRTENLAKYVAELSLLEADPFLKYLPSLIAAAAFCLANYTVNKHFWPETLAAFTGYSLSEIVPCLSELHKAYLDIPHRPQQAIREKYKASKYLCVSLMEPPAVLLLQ
Substitution | normalised enrichment score
DDIVSKLAFDFVE [V8A] | -0.357
DDIVSKAVFDFVE [L7A] | -0.607
DDIVSKLVFDFVA [E13A] | -0.316
DDIVSKLVFDFAE [V12A] | -0.533
DDIVSKLVFDAVE [F11A] | -0.504
DDIASKLVFDFVE [V4A] | -0.379

Set 3
Target: Protein C-ets-1 (ETS1, Homo sapiens, UniProt P14921, residues 1-441, K379A, full length assumed)
Sequence of UniProt P14921 (whole entry, unmodified, looked up): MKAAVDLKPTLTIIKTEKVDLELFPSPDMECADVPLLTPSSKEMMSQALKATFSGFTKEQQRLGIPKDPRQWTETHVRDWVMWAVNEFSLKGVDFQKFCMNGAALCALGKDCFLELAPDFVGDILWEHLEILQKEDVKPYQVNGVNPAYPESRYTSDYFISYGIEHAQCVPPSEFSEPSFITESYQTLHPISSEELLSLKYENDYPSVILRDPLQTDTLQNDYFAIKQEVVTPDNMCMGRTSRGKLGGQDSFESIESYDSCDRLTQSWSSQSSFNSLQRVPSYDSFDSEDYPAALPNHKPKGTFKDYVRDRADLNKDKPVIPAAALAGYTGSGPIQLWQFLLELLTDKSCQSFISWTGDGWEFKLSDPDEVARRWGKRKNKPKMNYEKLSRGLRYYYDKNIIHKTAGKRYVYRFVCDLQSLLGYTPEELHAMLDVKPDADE
Method: protein-binding microarray
Molecule type: double-stranded DNA, one strand shown
Matrix: in vitro
Tested at: not given
Notes: k-mer, scored over probes, only values ≥0.25
Reading: higher = stronger binding
Strand | E-score
ACTACACA | 0.265
TACAGATA | 0.308
ACTAATCA | 0.273
CTACGTAC | 0.287
AACGACAT | 0.274
GCAGGTAA | 0.264
ATGCCGGA | 0.323
CCGTCGTA | 0.296
GCCGGCGC | 0.312
CCGACCGG | 0.372
CAATACCG | 0.294
CGCCCCGC | 0.341
CGACGGCG | 0.274
CGCCGGTC | 0.362
ATATAGTC | 0.257
AAATGGTA | 0.273

Set 4
Target: Histone acetyltransferase KAT6A, winged helix 1, GST fusion (KAT6A, Homo sapiens, UniProt Q92794, residues 1-85)
Method: protein binding microarray
Molecule type: double-stranded DNA, one strand shown
Matrix: in vitro
Tested at: not given
Notes: 8-mer, flanks averaged, mean of 2 arrays, mostly near background
Relative to: not given
Reading: higher = stronger binding
Residues (chain): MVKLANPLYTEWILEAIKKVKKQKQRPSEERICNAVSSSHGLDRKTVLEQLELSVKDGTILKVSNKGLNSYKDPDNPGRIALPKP
Strand | E-score
CTCAAAGA | -0.137
GATTAATA | -0.0317
CAAATAAG | -0.14
CTTAACAA | 0.0025
TATGCACA | -0.229
TCACACAA | -0.231
AAGCGGGA | 0.334
TCACAGGA | -0.191
AAGTGCAG | -0.236
GACATGCC | 0.0942
AAGATGTG | -0.231
ATGGCAAC | 0.0062
AACTACAG | 0.00594
TTAAGGAA | -0.13
ATCGAGCG | 0.262
AATAGCGA | -0.0219

Set 5
Target: Protein C-ets-1, full length (ETS1, Homo sapiens, UniProt P14921, residues 1-441)
Method: protein-binding microarray
Molecule type: hairpin DNA
Matrix: in vitro
Tested at: not given
Notes: whole hairpin DNA, median over replicate spots
Relative to: not given
Reading: higher = stronger binding
Strand | median fluorescence [a.u.]
GAGGCCAGCCGGCGGTTGCCTCCTGGCAACCGCCGGCTGGCCTCACACTC (5mC at 13 31) | 549
GAGGCCAGTCGGCGGTTGCCTCCTGGCAACCGCCGACTGGCCTCACACTC (5mC at 31) | 593
GAGGCCAGTCGGAAGTTGCCTCCTGGCAACTTCCGACTGGCCTCACACTC (5mC at 33) | 1610
GAGGCCAGTCGGAACGTGCCTCCTGGCACGTTCCGACTGGCCTCACACTC (5mC at 15 29) | 602
GAGGCCAGCCGGAAGTTGCCTCCTGGCAACTTCCGGCTGGCCTCACACTC (5mC at 34) | 9110
GAGGCCAGCCCGAAGTTGCCTCCTGGCAACTTCGGGCTGGCCTCACACTC | 561
GAGGCCAGTCGCAAGTTGCCTCCTGGCAACTTGCGACTGGCCTCACACTC (5mC at 12) | 524
GAGGCCAGCGGGAAGTTGCCTCCTGGCAACTTCCCGCTGGCCTCACACTC (5mC at 9 35) | 1250
GAGGCCAGCCGGGAGTTGCCTCCTGGCAACTCCCGGCTGGCCTCACACTC | 558
GAGGCCAGCCCGAAGTTGCCTCCTGGCAACTTCGGGCTGGCCTCACACTC (5mC at 11) | 566
GAGGCCAGTCGGCAGTTGCCTCCTGGCAACTGCCGACTGGCCTCACACTC | 568
GAGGCCAGTCGGAACGTGCCTCCTGGCACGTTCCGACTGGCCTCACACTC | 586
GAGGCCAGTCGCGAGTTGCCTCCTGGCAACTCGCGACTGGCCTCACACTC (5mC at 32) | 557
GAGGCCAGCCCGAAGTTGCCTCCTGGCAACTTCGGGCTGGCCTCACACTC (5mC at 33) | 557
GAGGCCAGCCGGAAGCTGCCTCCTGGCAGCTTCCGGCTGGCCTCACACTC | 6420
GAGGCCAGCCGGAAGTGGCCTCCTGGCCACTTCCGGCTGGCCTCACACTC | 9830
GAGGCCAGTCGGCAGTTGCCTCCTGGCAACTGCCGACTGGCCTCACACTC (5mC at 13) | 568
GAGGCCAGCCGGAAGCTGCCTCCTGGCAGCTTCCGGCTGGCCTCACACTC (5mC at 16) | 5630
GAGGCCAGCCGGAAGTCGCCTCCTGGCGACTTCCGGCTGGCCTCACACTC (5mC at 17) | 11100
GAGGCCAGCCGGGAGTTGCCTCCTGGCAACTCCCGGCTGGCCTCACACTC (5mC at 32) | 562
GAGGCCAGTCGGAAATTGCCTCCTGGCAATTTCCGACTGGCCTCACACTC | 2650
GAGGCCGGTCGGAAGTTGCCTCCTGGCAACTTCCGACCGGCCTCACACTC | 3170
GAGGCCAGCCGCGAGTTGCCTCCTGGCAACTCGCGGCTGGCCTCACACTC (5mC at 12 32) | 552

Set 6
Target: Interferon regulatory factor 7, full length, phosphomimetic (IRF7, Homo sapiens, UniProt Q92985, residues 1-503, S101K/S471D/S472D/S475D/S476D/S477D/S483D/S484D/S487D)
Sequence of UniProt Q92985 (whole entry, unmodified, looked up): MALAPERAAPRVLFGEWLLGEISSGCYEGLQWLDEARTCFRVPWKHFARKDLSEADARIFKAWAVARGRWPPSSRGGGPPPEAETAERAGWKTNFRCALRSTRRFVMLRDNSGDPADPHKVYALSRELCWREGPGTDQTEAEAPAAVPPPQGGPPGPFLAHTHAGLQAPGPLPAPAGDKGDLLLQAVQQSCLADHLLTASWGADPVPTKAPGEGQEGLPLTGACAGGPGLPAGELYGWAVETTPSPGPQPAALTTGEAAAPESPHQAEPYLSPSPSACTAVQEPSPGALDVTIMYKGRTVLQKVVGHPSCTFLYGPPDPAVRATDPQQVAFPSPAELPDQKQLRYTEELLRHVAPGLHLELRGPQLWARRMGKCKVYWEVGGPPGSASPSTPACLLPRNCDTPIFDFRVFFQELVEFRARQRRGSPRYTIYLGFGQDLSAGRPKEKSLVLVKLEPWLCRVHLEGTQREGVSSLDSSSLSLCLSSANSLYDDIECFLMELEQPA
Method: protein-binding microarray
Molecule type: double-stranded DNA, one strand shown
Matrix: in vitro
Tested at: 250 nM
Notes: 60-bp whole probe
Added: salmon DNA 0.4 mg/ml
Relative to: random background probes
Reading: higher = stronger binding
Constant ends, left off below: GCCTAGCAC … GTCTTGATTCGCTTGACGCTGCTG
Strand | log fluorescence [z-score]
TTAGATTTCGGGACTCGATTAGTGCTA | 1.27
ACAGGACAGTCCCATCTACCGTGCTAG | -0.404
TGTGATCTCATATGAAAACAGTGCTAG | 0.535
TTAGACATCAGTCTCGATTAGTGCTAG | 1.52
GACGATATCGGGTTTCAAGACGTGCTA | 0.164
CAGTTTATTTATTTTTACATGTGCTAG | 1.28
TTAGGTATCCTTATCCTATAGTGCTAG | 0.768
TTAGGACTGGGGTTTCGGTGAGTGCTA | 0.692
GACGGTCTCCTTTTCCTGGCGTGCTAG | 1.37
GACGGTCCCGGTATCGGGACGTGCTAG | 0.676
TTTGATCTCAGACTGGATTAGTGCTAG | -0.088
TTAGATATCAGTCTCGATGAGTGCTAG | 0.0906
TTAGGACCGGACACTGGGTTAGTGCTA | -0.36
TTAGGTTTCGACTTTCGCTTAGTGCTA | 11.2
TATGGTATGCTCATGACAAAGTGCTAG | -0.242
TCAAGGCTGTGTTTTCACACTGTGCTA | -0.768
GACGAACTGGCGTTTCGAGACGTGCTA | -0.0586
GACGATTTCGGGTTGCGAGACGTGCTA | 2.35

Set 7
Target: Sal-like protein 4, full length isoform B (SALL4, Homo sapiens, UniProt Q9UJQ4-2, residues 1-616)
Method: universal PBM
Molecule type: double-stranded DNA, one strand shown
Matrix: in vitro
Tested at: not given
Notes: 8-mer, flanks averaged, mean of replicates
Reading: higher = stronger binding
Construct (chain): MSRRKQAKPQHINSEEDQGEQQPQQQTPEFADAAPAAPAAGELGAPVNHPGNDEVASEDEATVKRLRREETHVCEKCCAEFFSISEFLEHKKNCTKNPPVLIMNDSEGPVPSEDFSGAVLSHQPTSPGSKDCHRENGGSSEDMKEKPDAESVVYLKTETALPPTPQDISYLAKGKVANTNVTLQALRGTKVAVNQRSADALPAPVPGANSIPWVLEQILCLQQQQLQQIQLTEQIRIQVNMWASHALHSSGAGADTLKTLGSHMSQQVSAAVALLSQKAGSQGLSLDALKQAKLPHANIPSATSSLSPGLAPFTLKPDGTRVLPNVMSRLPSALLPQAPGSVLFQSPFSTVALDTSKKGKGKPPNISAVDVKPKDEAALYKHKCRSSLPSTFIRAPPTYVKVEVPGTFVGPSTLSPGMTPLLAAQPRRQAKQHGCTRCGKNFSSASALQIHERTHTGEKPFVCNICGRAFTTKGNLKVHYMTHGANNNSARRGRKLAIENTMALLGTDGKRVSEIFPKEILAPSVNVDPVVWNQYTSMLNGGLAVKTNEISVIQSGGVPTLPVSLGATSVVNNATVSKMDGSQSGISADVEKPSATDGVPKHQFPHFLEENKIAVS
Strand | E-score
CCTCGGAA | -0.132
CGCCGGAA | -0.263
CGAGCGGA | -0.281
ATGCCACA | 0.087
AGAGACCT | -0.0718
AGACAATC | -0.00343
GTCGTCTA | -0.0904
CACATATG | 0.126
GTGGCTGA | -0.152
ACAAACGC | -0.0557
ACCAACCC | -0.202
AGCCCCAA | -0.209
ACTGTCGC | -0.19
AGTGTGCC | -0.148
CCTCGGAC | -0.2
AAACTGAC | -0.116
ACTCGCGC | -0.144
CTAATCTA | 0.193
AGGATACT | 0.0386
CGCTGAGA | -0.275
ACCTCGCG | -0.22
ACGCCGTC | -0.208
GAGTTACA | 0.0636
AGCTTAAC | -0.0673
